# Experimental data from different studies.
# Compare with care: the assays were run in different laboratories.
# 4'-phosphopantetheinyl transferase PptT: 4'-phosphopantetheinyl transferase PptT (Mycobacterium tuberculosis, UniProt O33336)
# Chain of UniProt O33336 (whole entry, looked up): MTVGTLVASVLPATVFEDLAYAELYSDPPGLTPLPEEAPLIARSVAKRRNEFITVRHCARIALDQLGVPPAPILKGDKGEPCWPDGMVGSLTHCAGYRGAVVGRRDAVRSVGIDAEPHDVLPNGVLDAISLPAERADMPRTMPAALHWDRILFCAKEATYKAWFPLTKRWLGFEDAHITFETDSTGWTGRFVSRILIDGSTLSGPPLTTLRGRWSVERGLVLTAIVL
# Chain of UniProt Q9NRM7 (whole entry, looked up): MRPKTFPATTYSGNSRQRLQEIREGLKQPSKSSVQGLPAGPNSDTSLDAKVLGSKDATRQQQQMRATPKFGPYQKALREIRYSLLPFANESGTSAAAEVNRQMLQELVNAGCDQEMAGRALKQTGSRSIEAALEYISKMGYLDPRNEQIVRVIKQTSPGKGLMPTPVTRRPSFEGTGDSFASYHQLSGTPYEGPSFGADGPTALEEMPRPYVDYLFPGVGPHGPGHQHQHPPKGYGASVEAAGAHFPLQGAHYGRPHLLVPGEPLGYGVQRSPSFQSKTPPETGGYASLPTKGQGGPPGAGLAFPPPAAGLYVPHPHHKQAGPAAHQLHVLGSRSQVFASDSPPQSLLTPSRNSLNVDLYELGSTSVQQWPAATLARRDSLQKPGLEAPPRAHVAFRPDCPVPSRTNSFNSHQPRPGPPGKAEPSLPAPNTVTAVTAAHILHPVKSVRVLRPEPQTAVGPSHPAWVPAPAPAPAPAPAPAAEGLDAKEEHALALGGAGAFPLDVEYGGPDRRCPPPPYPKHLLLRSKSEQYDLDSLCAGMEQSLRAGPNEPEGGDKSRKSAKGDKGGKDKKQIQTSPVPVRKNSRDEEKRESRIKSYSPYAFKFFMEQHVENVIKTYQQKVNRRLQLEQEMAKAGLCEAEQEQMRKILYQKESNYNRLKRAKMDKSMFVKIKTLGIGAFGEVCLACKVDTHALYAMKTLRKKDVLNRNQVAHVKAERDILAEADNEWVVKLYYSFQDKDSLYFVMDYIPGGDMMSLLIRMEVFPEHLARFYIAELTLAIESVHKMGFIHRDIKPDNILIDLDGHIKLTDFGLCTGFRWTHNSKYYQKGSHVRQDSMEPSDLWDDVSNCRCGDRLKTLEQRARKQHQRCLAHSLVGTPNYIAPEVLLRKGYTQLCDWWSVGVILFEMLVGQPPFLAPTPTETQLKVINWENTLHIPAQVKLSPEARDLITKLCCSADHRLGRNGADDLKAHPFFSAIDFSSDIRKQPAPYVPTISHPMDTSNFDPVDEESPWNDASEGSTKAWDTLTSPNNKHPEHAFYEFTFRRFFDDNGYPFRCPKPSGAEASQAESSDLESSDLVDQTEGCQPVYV
# Chain of UniProt Q9UF33 (whole entry, looked up): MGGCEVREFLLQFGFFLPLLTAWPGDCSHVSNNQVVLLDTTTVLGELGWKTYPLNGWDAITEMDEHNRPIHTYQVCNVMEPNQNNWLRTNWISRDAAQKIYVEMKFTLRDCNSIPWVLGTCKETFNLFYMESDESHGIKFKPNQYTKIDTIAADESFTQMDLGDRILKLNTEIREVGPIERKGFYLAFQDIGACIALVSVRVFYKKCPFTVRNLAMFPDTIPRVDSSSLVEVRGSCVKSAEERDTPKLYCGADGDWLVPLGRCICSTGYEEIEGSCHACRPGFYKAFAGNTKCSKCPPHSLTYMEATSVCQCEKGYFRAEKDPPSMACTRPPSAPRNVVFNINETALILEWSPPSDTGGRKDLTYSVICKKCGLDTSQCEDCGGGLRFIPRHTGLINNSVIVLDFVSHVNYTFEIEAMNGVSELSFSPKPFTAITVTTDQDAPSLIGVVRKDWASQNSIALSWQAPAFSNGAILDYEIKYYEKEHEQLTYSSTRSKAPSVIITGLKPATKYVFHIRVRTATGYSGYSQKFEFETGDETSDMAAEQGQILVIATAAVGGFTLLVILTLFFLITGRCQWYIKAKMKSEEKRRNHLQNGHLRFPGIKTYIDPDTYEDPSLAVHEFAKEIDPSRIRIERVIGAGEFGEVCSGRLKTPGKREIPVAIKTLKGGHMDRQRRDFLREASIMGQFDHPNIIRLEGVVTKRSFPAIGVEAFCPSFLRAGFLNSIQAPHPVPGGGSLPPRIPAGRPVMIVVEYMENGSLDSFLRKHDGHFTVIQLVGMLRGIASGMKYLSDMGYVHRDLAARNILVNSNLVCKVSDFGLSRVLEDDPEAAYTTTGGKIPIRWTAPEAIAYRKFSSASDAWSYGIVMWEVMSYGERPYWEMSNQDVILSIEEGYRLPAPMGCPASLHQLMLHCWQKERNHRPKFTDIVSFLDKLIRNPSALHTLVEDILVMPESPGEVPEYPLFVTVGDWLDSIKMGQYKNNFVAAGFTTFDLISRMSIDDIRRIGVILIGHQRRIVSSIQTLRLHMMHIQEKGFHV
# Chain of UniProt Q9UPE1 (whole entry, looked up): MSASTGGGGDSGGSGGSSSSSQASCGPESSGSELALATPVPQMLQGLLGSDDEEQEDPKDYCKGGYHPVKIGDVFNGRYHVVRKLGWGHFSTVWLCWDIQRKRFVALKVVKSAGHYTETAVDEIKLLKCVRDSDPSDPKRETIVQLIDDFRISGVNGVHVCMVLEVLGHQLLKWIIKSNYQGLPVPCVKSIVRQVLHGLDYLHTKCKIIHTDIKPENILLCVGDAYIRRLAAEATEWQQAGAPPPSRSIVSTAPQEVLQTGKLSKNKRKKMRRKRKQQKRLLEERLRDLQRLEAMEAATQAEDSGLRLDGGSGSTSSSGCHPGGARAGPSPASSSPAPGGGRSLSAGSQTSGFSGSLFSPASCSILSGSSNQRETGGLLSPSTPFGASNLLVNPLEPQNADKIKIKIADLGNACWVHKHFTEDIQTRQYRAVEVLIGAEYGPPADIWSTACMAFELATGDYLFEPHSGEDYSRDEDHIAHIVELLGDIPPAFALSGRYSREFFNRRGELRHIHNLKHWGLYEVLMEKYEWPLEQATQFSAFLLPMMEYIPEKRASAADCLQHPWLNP
# Chain of UniProt Q96Q40 (whole entry, looked up): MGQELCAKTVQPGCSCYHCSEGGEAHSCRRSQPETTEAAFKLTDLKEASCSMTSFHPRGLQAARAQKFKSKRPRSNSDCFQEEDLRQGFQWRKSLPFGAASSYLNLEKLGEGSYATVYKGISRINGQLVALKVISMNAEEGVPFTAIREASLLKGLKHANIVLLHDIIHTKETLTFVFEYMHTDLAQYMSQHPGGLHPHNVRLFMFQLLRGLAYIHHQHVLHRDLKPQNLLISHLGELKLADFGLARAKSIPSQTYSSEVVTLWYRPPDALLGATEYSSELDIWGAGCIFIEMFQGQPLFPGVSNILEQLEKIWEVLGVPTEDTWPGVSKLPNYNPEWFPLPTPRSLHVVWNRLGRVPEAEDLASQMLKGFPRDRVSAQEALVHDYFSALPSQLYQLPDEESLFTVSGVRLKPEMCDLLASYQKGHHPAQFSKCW
Structure (SMILES),target or system,assay,test system,conditions,measurement,result
CC(C)C[C@H]1C(=O)N[C@@H](C)C(=O)N[C@@H](CO)C(=O)N[C@@H](C(C)C)C(=O)N(C)[C@@H](CC(C)C)C(=O)N[C@H](C)C(=O)N[C@H](C(C)C)C(=O)N2CCC[C@@H]2C(=O)N[C@H](Cc2ccc(O)cc2)C(=O)NCC(=O)N1C,,,aqueous buffer,"18 h, pH 7.4",solubility,813 µM
CN1CCN(S(=O)(=O)c2cc([N+](=O)[O-])ccc2N(CCOS(C)(=O)=O)CCOS(C)(=O)=O)CC1,,,"female SCID mouse, plasma","intraperitoneal, 5 mg/kg",half-life,7.2 min
N.N.[Cl][Pt][Cl],Granta-519,"cell growth or viability, ATP luminescence",,"10 µM, 72 h",inhibition,82%
CCC[C@@](N)(CO)CCc1ccc(OCCCCCC(C)C)cc1,,,"dog, plasma","oral, 2.5 mg/kg, solution",Cmax,105 nM
Cl.Cn1c(=O)n(CCCCN2CCC3(CC2)OCc2ccccc23)c2ccccc21,,,"male Sprague-Dawley rat, plasma","intravenous, 5 mg/kg",clearance,21.7 mL/min/kg
COc1ncccc1-c1cnn2ccc(N3CCN(C(=O)OC(C)C)CC3)nc12,"Serine/threonine-protein kinase LATS2 (LATS2, Homo sapiens, UniProt Q9NRM7)","binding, competition with immobilised ligand",,1 µM,remaining binding,82%
NC(=O)c1ccc(Cn2c(=S)[nH]c3ccc(Cl)cc3c2=O)cn1,4'-phosphopantetheinyl transferase PptT,"enzyme activity, inhibitor, FP",,,IC50,0.16 µM
CC(C)C[C@H]1C(=O)N[C@@H]([C@@H](C)O)C(=O)N[C@@H](CO)C(=O)N[C@@H](C)C(=O)N[C@H]([C@H](C)O)C(=O)N2CCC[C@H]2C(=O)N(C)[C@@H](CC(C)C)C(=O)N[C@H](Cc2ccc(O)cc2)C(=O)N[C@H](Cc2ccccc2)C(=O)N[C@H](C(C)C)C(=O)NCC(=O)N1C,,,aqueous buffer,"18 h, pH 7.4",thermodynamic solubility,183 µM
CC(C)C[C@H](NC(=O)[C@H](Cc1ccccc1)NC(=O)[C@H](Cc1ccccc1)NC(=O)Cc1ccc(-c2ccccc2)cc1)C(=O)N[C@@H](CCCCN)C(=O)N[C@@H](CCCNC(=N)N)C(=O)N[C@H](C(=O)N[C@@H](Cc1c[nH]c2ccccc12)C(=O)N[C@@H](CCCCN)C(=O)N[C@@H](CCCNC(=N)N)C(=O)O)C(C)C,,metabolic stability,"rat, liver microsomes",5 min,compound remaining,50.9%
C#Cc1ccc2c(c1)C(c1ccccn1)=NCc1c(-c3cnco3)ncn1-2.Cl,,,water,"1 h, 37 °C",kinetic solubility,3900 µg/mL
N=C(N)NCCC[C@@H](NC(=O)[C@@H](N)Cc1ccccc1)C(=O)N[C@@H](Cc1ccccc1)C(=O)N[C@@H](CCCCN)C(N)=O,,,"human, plasma","subcutaneous, 5 mg, patients",Tmax,37.2 min
Nc1ncc(-c2nc(N3CCOCC3)nc(N3CCOCC3)n2)c(C(F)F)n1,"Ephrin type-A receptor 6 (EPHA6, Homo sapiens, UniProt Q9UF33)","cell-free assay, competition with immobilised ligand",,10 µM,remaining binding,94%
CC(C)CC(=O)OC[C@H]1O[C@@](C#N)(c2ccc3c(N)ncnn23)[C@H](O)[C@@H]1O,,metabolic stability,"mouse, plasma",5 µM,half-life,0.321 min
[2H]c1c([2H])c([C@]2([2H])CCCN2C(=O)C(C)(C)Oc2ccc3cn[nH]c3c2)c([2H])c([2H])c1C([2H])([2H])[2H],"SRSF protein kinase 3 (SRPK3, Homo sapiens, UniProt Q9UPE1)","binding, competition with immobilised ligand",,1 µM,remaining binding,100%
Cc1ccccc1C(=O)NN=Cc1ccc(O)c(Br)c1,,,"mouse, plasma","intraperitoneal, 0.8 mg/kg",bioavailability,107%
CC(C)C[C@H]1NC(=O)[C@@H](N)CSSC[C@@H](C(=O)O)NC(=O)[C@H](Cc2ccccc2)NC(=O)[C@H](C)NC(=O)[C@H]([C@@H](C)O)NC(=O)[C@H]2CCCN2C(=O)[C@@H]2CCCN2C(=O)[C@H](C(C)C)NC(=O)[C@H](CCC(=O)O)NC1=O,,,aqueous buffer,"18 h, pH 7.4",solubility,708 µM
O=C(OCc1cc2[nH]c(=S)n(Cc3cncnc3)c(=O)c2cc1Cl)Oc1ccccc1,4'-phosphopantetheinyl transferase PptT,"enzyme activity, inhibitor, FP",,,IC50,17.7 µM
CCCCCCCCCCCCCCCC(=O)NCCOC(=O)C[C@@H](CN)CC(C)C,,,mouse,"oral, 2000 mg/kg, single dose",LD50,> 2000 mg/kg
C=CS(=O)(=O)c1ccc(Nc2nc(OCC3CCCCC3)c3nc[nH]c3n2)cc1,,general toxicity,C57BL/6 mouse,intraperitoneal,MTD,100 mg/kg
N=c1c2c(-c3ccccc3)c(-c3ccccc3)n(Cc3ccccc3)c2ncn1[C@H]1CC[C@H](O)CC1,,,"male beagle dog, plasma","oral, 1 mg/kg, single dose",half-life,8740 min
CC[C@H](C)[C@H]1C(=O)N[C@@H]([C@@H](C)O)C(=O)N[C@@H](C)C(=O)N[C@@H](Cc2ccccc2)C(=O)N[C@@H](CC(C)C)C(=O)NCC(=O)N[C@@H](CC(C)C)C(=O)N2CCC[C@@H]2C(=O)N[C@H](Cc2ccc(O)cc2)C(=O)N2CCC[C@H]2C(=O)NCC(=O)N[C@@H](CCCNC(=N)N)C(=O)N1C,,,aqueous buffer,"18 h, pH 7.4",thermodynamic solubility,768 µM
Cc1nn(C)cc1-c1nc2c(N3CCN(Cc4ccc(Cl)cc4)CC3)c(Cl)cnc2[nH]1,"Cyclin-dependent kinase 15 (CDK15, Homo sapiens, UniProt Q96Q40)","binding, competition with immobilised ligand",,1 µM,remaining binding,100%
CC(C)C[C@@H]1NC(=O)[C@H](CCC(=O)O)NC(=O)[C@H]2CCCN2C(=O)[C@@H](N)CSSC[C@@H](C(=O)O)NC(=O)[C@@H]2CCCN2C(=O)[C@H](Cc2ccccc2)NC(=O)[C@H](CC(C)C)N(C)C(=O)[C@H]([C@@H](C)O)NC(=O)[C@H](C(C)C)NC1=O,,,aqueous buffer,"18 h, pH 7.4",thermodynamic solubility,741 µM
NCCNC(=O)O[C@H]1CCC[C@@]2(C1)OOC1(O2)C2CC3CC(C2)CC1C3 (some centres unmarked),,,"male CD-1 mouse, plasma","intravenous, 3 mg/kg",half-life,99.6 min
CC[C@@H]1NC(=O)[C@H](CC(C)C)NC(=O)CNC(=O)CNC(=O)[C@@H](CC(C)C)NC(=O)[C@@H](Cc2ccc(O)cc2)NC(=O)CSC[C@@H](C(=O)O)NC(=O)[C@H](C(C)C)NC(=O)[C@H](CC(C)C)NC(=O)[C@H](C)NC(=O)[C@H]([C@@H](C)CC)NC1=O,,,aqueous buffer,pH 7.4,solubility,4 µM
CCCC[C@@H]1NC(=O)[C@H](Cc2ccc(O)cc2)NC(=O)[C@@H]2CCCN2C(=O)[C@H](CC(=O)O)NC(=O)[C@H](C)NC(=O)[C@H](Cc2ccccc2)NC(=O)[C@@H]2CSCCC(=O)N3CN(CN(C3)C(=O)CCSC[C@@H](C(N)=O)NC1=O)C(=O)CCSCCC(=O)N[C@@H](CC(C)(C)C)C(=O)N1CCC[C@H]1C(=O)N[C@@H](CCC(=O)O)C(=O)N[C@H](CCCCNC(=O)CCc1cn(CCOCCOCCOCCN(CCOCCOCCOCCC(=O)N[C@H]3CSCCC(=O)N4CN5CN(C4)C(=O)CCSC[C@H](NC(=O)[C@@H](CC(=O)O)NC(=O)[C@H](Cc4cccc6ccccc46)NC(=O)[C@@H]4CCCN4C3=O)C(=O)N[C@@H](CCSC)C(=O)N[C@@H](CCCCNC(=N)N)C(=O)N[C@@H](CC(=O)O)C(=O)N[C@@H](Cc3c[nH]c4ccccc34)C(=O)N[C@@H](CO)C(=O)N[C@@H]([C@@H](C)O)C(=O)N3CCC[C@H]3C(=O)N3C[C@H](O)C[C@H]3C(=O)N[C@@H](Cc3c[nH]c4ccccc34)C(=O)N[C@H](C(N)=O)CSCCC5=O)CCOCCOCCOCCn3cc(CCC(=O)NCCCC[C@H]4NC(=O)[C@H](CCC(=O)O)NC(=O)[C@@H]5CCCN5C(=O)[C@H](CC(C)(C)C)NC(=O)CCSCCC(=O)N5CN6CN(C5)C(=O)CCSC[C@H](NC(=O)[C@H](Cc5ccc(O)cc5)NC(=O)[C@@H]5CCCN5C4=O)C(=O)N[C@@H](Cc4ccccc4)C(=O)N[C@@H](C)C(=O)N[C@@H](CC(=O)O)C(=O)N4CCC[C@H]4C(=O)N[C@@H](Cc4ccc(O)cc4)C(=O)N[C@@H](CCCC)C(=O)N[C@H](C(N)=O)CSCCC6=O)nn3)nn1)C(=O)N1CCC[C@H]1C(=O)N[C@@H](Cc1ccc(O)cc1)C(=O)N2,,,"rat, plasma","intravenous, 2 mg/kg",Vd,4.8 L/kg

# Some of these lines once more:
Structure (SMILES),target or system,assay,test system,conditions,measurement,result
N=c1c2c(-c3ccccc3)c(-c3ccccc3)n(Cc3ccccc3)c2ncn1[C@H]1CC[C@H](O)CC1,,,"male beagle dog, plasma","oral, 1 mg/kg, single dose",half-life,8740 min
CC[C@H](C)[C@H]1C(=O)N[C@@H]([C@@H](C)O)C(=O)N[C@@H](C)C(=O)N[C@@H](Cc2ccccc2)C(=O)N[C@@H](CC(C)C)C(=O)NCC(=O)N[C@@H](CC(C)C)C(=O)N2CCC[C@@H]2C(=O)N[C@H](Cc2ccc(O)cc2)C(=O)N2CCC[C@H]2C(=O)NCC(=O)N[C@@H](CCCNC(=N)N)C(=O)N1C,,,aqueous buffer,"18 h, pH 7.4",thermodynamic solubility,768 µM
